Measured values gathered from unrelated publications.
Protocols differ between the studies behind these lines. “And” joins repeats or separate records; there may be more than shown.

Cc1noc(C)c1Cn1cc(N2C(=O)CN(Cc3cccc(O[C@@H]4O[C@H](C(=O)O)[C@@H](O)[C@H](O)[C@H]4O)c3)C2=O)cn1  plasma concentration (Sprague-Dawley rat, male; oral, 10 mg/kg of parent drug, 0.5 h): 2290 ng/mL
Cc1cc(C(=O)NC(C)(C)CO)cc(C)n1  plasma peak area (LC-MS metabolite profiling; Sprague-Dawley rat, both sexes, plasma; oral, 100 mg/kg of parent drug, 1 (unit not given); higher = more metabolite): 182000 a.u.
Cc1noc(C)c1Cn1cc(N2C(=O)CN(Cc3cccc(OS(=O)(=O)O)c3)C2=O)cn1  plasma concentration (Sprague-Dawley rat, male; oral, 30 mg/kg of parent drug, 12 h): 667 ng/mL
CNc1cc(N)c(C(N)=O)c[n+]1C  plasma concentration of product (substrate, refers to: methylated product; rats, plasma; oral, 30 mg/kg, 3.00 h): 201 nM and 264 nM
CC[C@H](C)[C@H](NC(=O)[C@H](Cc1ccc(O)cc1)NC(=O)[C@@H](NC(=O)[C@H](CCCNC(=N)N)NC(=O)[C@@H](N)CC(=O)O)C(C)C)C(=O)N[C@@H](Cc1c[nH]cn1)C(=O)N1CCC[C@H]1C(=O)O  plasma concentration (LC-MS/MS; Sprague-Dawley rat, both sexes, plasma; subcutaneous, 10 mg/kg/day, day 27, 0.5 h, 30 min): 98.1 ng/mL
O=C(NS(=O)(=O)c1cccs1)c1cc2ccccc2n1Cc1ccc(Br)c2ccccc12  plasma concentration (Sprague-Dawley rat, male; intravenous, dose not given, 8 h): 3.23 ng/mL
CNc1cc(C)c(C(N)=O)cn1  plasma concentration (Han Wistar rats, male, plasma; oral, 30 mg/kg, 24.0 h): 20.8 nM
CCCN(C)c1cc(C(F)(F)F)nc(SCCC(=O)NCc2ccco2)n1  plasma ALT (Wistar rat, plasma; intraperitoneal, 25 mg/kg, 2 h post-dose; reference: vehicle control): no effect
CNc1cc(N)c(C(N)=O)cn1  plasma concentration (Han Wistar rats, male, plasma; oral, 30 mg/kg, 1.00 h): 28400 nM
Cc1cc(C(=O)NC(C)(C)C(=O)O)cc(C)n1  plasma peak area (LC-MS metabolite profiling; Sprague-Dawley rat, both sexes, plasma; oral, 100 mg/kg of parent drug, 1 (unit not given); higher = more metabolite): 31500 a.u.

Excerpt of the above:
O=C(NS(=O)(=O)c1cccs1)c1cc2ccccc2n1Cc1ccc(Br)c2ccccc12  plasma concentration (Sprague-Dawley rat, male; intravenous, dose not given, 8 h): 3.23 ng/mL
